Measured values from different studies.
Compare with care: the assays were run in different laboratories. Numbers after ± are the reported error.

| Compound | test | test system | setting | AUC(0-t) |
| --- | --- | --- | --- | --- |
| CN(Cc1cnc2nc(N)nc(N)c2n1)c1ccc(C(=O)N[C@@H](CCC(=O)O)C(=O)O)cc1 | – | rat, plasma | oral, 5.0 mg/kg, 2880 min, with: indican 20.0 mg/kg oral | 3.5 ± 0.473 µM·h |
| O=C(O)/C=C/c1ccc(O)c(O)c1 | UPLC-MS/MS | Wistar rat, microcirculation dysfunction model, plasma | oral, 100 mg/kg Salvia miltiorrhiza stem-leaf extract FT | 0.0451 ± 0.00676 µg·h/mL |
| CCN1CCN(c2ccc(Nc3cc(N(C)C(=O)Nc4c(Cl)c(OC)cc(OC)c4Cl)ncn3)cc2)CC1 | LC-MS/MS | juvenile female Crl:WI(Han) rats, plasma | oral gavage, 0.1 mg/kg/day, postnatal day 17 | 0.0361 µg·h/mL |
| O=C(O)C[C@H](O)C[C@H](O)/C=C/c1c(C2CC2)nc2ccccc2c1-c1ccc(F)cc1 | – | male Sprague-Dawley rat (wild type), plasma | oral, 5 mg/kg | 2.02 ± 0.394 µg·h/mL |
| CCN(CC)Cc1cc(Nc2ccnc3cc(Cl)ccc23)ccc1O | – | rat, Wistar, male, plasma | oral, 60 mg/kg, with: myricetin 5 mg/kg iv | 4.84 ± 0.608 µg·h/mL |
| O=C(/C=C/c1ccc(O)c2c1[C@H](C(=O)O)[C@@H](c1ccc(O)c(O)c1)O2)O[C@H](Cc1ccc(O)c(O)c1)C(=O)O | UPLC-MS/MS | Wistar rat, microcirculation dysfunction model, plasma | oral, 100 mg/kg Salvia miltiorrhiza stem-leaf extract FS | 0.203 ± 0.0334 µg·h/mL |
| CNC(=O)c1ccc(-c2cnc3ncc(Cc4ccc5ncccc5c4)n3n2)cc1F | – | moderate hepatic impairment | oral, 200 mg, mean | 5.92 µg·h/mL |
| C[C@@H]1CCN(C(=O)CC#N)C[C@@H]1N(C)c1ncnc2[nH]ccc12 | – | Sprague-Dawley rats, male, plasma | oral, 10 mg/kg, with: linagliptin 5 mg/kg | 11.6 ± 4.36 µg·h/mL |
| O=C(/C=C/c1ccc(O)c(O)c1)O[C@H](Cc1ccc(O)c(O)c1)C(=O)O | UPLC-MS/MS | Wistar rat, microcirculation dysfunction model, plasma | oral, 100 mg/kg Salvia miltiorrhiza stem-leaf extract FT | 0.11 ± 0.0186 µg·h/mL |
| CCCC[C@H](NC(C)=O)C(=O)N[C@H]1CCC(=O)NC[C@@H](C(=O)N[C@@H](Cc2c[nH]c3ccccc23)C(N)=O)NC(=O)[C@H](CCCNC(=N)N)NC(=O)[C@@H](Cc2ccccc2)NC(=O)[C@H](Cc2c[nH]cn2)NC1=O | – | CD Sprague Dawley rat, male, plasma | subcutaneous, 5.0 mg/kg daily, day 14 | 1.64 µg·h/mL |
| O=C(/C=C/c1ccc(O)c(O)c1/C=C/c1ccc(O)c(O)c1)O[C@H](Cc1ccc(O)c(O)c1)C(=O)O | UPLC-MS/MS | Wistar rat, microcirculation dysfunction model, plasma | oral, 100 mg/kg Salvia miltiorrhiza stem-leaf extract FT | 0.137 ± 0.0374 µg·h/mL |
| CS(=O)(=O)c1ccc(-c2cnc(N)c(-c3ccc(C(F)(F)F)nc3)c2)cc1 | – | pregnant female Sprague-Dawley rat, plasma | oral, 30 mg/kg/day, gestation day 17 | 141 µg·h/mL |

Excerpt of the above:
| Compound | test | test system | setting | AUC(0-t) |
| --- | --- | --- | --- | --- |
| CCN(CC)Cc1cc(Nc2ccnc3cc(Cl)ccc23)ccc1O | – | rat, Wistar, male, plasma | oral, 60 mg/kg, with: myricetin 5 mg/kg iv | 4.84 ± 0.608 µg·h/mL |
